Experimental data collected from several papers.
± gives the spread as reported.

CN[C@@H]1[C@H](O)[C@H](NC)[C@H]2O[C@]3(O)[C@H](O[C@@H]2[C@H]1O)O[C@H](C)C[C@@]3(O)CNCCc1ccccc1
IC50 (Mycolicibacterium smegmatis ribosome; cell-free translation): 930 ± 390 nM

CCc1c(-c2ccc(O)cc2)nn(-c2ccc(O)cc2)c1-c1ccc(OCCN2CCCCC2)cc1
IC50 (TLR9; TNF-alpha production, antagonist, ELISA; RAW264.7; 6 h, added: CpG-DNA 1 µM): 2850 ± 50 nM

COc1cc(CCC(C)=O)ccc1O
IC50 (mAb 5-D8; antibody binding, indirect competitive ELISA; added: coating antigen hapten 3-OVA): > 4 µg/mL

COC(=O)c1ccc2c(c1)NC(=O)/C2=C(\Nc1ccc(N(C)C(=O)CN2CCN(CCOCCOCCNC(=O)c3cc(OCc4cn(CCCCN5C[C@@H]6C[C@H]5C(=O)N[C@@H](CC(C)C)C(=O)N[C@@H](CCCNC(=N)N)C(=O)NCC(=O)N[C@@H](CC(=O)O)C(=O)N[C@@H](CC(C)C)C(=O)N6)nn4)cc(OCc4cn(CCCCN5C[C@@H]6C[C@H]5C(=O)N[C@@H](CC(C)C)C(=O)N[C@@H](CCCNC(=N)N)C(=O)NCC(=O)N[C@@H](CC(=O)O)C(=O)N[C@@H](CC(C)C)C(=O)N6)nn4)c3)CC2)cc1)c1ccccc1
IC50 (integrin αVβ6 (mouse); cell adhesion to fibronectin; L929; 30 min preincubation): < 1000 nM

O=C(Nc1ccc(S(=O)(=O)Nc2nccs2)cc1)c1cc(-c2ccco2)nc2ccccc12
IC50 (ChREBP human; reporter gene, inhibitor, LPK promoter luciferase; HepG2; added: high glucose): ~1000 nM

CN[C@@H]1[C@H](O)[C@H](NC)[C@H]2O[C@]3(O)[C@H](O[C@@H]2[C@H]1O)O[C@H](C)C[C@]3(O)CNCCc1nccs1
IC50 (Mycolicibacterium smegmatis ribosome; cell-free translation): 32000 ± 31000 nM

COc1cc(C(=O)c2[nH]c(N)nc2-c2cccs2)cc(OC)c1OC
IC50 (MAP-rich tubulin; polymerization, inhibitor, light scattering; 37 °C): 63000 ± 27000 nM

Oc1ccc(-c2cc(-c3ccc(OCCN4CCCCC4)cc3)n(-c3ccc(O)cc3)n2)cc1
IC50 (TLR9; TNF-alpha production, antagonist, ELISA; RAW264.7; 6 h, added: CpG-DNA 1 µM): 1470 ± 250 nM

CN[C@@H]1[C@H](O)[C@H](NC)[C@H]2O[C@]3(O)[C@H](O[C@@H]2[C@H]1O)O[C@H](C)C[C@@]3(O)CNCCc1ccc(F)cc1
IC50 (Mycolicibacterium smegmatis ribosome; cell-free translation): 1010 ± 210 nM

Oc1ccc(-c2cc(-c3ccc(OCCCN4CCCCC4)cc3)n(-c3ccc(O)cc3)n2)cc1
IC50 (TLR9; TNF-alpha production, antagonist, ELISA; RAW264.7; 6 h, added: CpG-DNA 1 µM): 1440 ± 270 nM

CCCCC/C=C/C(=O)CCc1ccc(O)c(OC)c1
IC50 (mAb 5-D8; antibody binding, indirect competitive ELISA; added: coating antigen hapten 3-OVA): > 4 µg/mL

CN[C@@H]1[C@H](O)[C@H](NC)[C@H]2O[C@]3(O)[C@H](O[C@@H]2[C@H]1O)O[C@H](C)C[C@@]3(O)CNCCc1ccc(C)cc1
IC50 (Mycolicibacterium smegmatis ribosome; cell-free translation): 1430 ± 410 nM

C#CCOCCOCCOCCOCCn1cc(C(ONC(=O)/C=C/C(C)=C/C2(C)Oc3cc(N(C)C)ccc3C2=O)(c2ccc(C)cc2)c2ccc(C)cc2)nn1 (stereo not shown)
IC50 (HDAC; histone acetylation, inhibitor, BRET; MeT-5A; 16 h): 500 nM
